Results gathered from unrelated publications.
Numbered parts are unrelated; each lists some results of a single study.

Study 1
Target: Histone acetyltransferase KAT6A, winged helix 2, GST fusion (KAT6A, Homo sapiens, UniProt Q92794, residues 85-181)
Method: protein binding microarray
Form: double-stranded DNA, one strand shown
Sample: in vitro
Tested at: not given
Setting: 8-mer, flanks averaged, mean of 2 arrays, mostly near background
Relative to: not given
Direction: higher = stronger binding
Residues (chain): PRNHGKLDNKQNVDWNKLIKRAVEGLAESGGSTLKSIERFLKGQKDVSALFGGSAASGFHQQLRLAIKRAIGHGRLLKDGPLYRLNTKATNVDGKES
Strand | E-score
GAATTAGC | 0.0792
GGCTATAC | -0.057
CAGTGACA | 0.0179
AGGCGCTG | -0.115
GCGCATAA | -0.139
ACTCCCCC | -0.17
CGCGACAA | 0.117
ACGTTAGC | 0.0495
TAATCAGA | 0.0455
CCATGGTA | -0.139
CTTTAAAC | -0.0677
AGCAGACC | 0.183
CCTGACTC | -0.0506
CACGAAAA | 0.0318
ATAGCGCA | -0.111
GCGGTCGA | 0.149
CGGAAAAC | -0.0363
CGAATCCC | 0.116
GTAATCGA | -0.0878
ACTCTAGA | -0.147
CATATGCG | -0.0963

Study 2
Target: Ras GTPase-activating protein-binding protein 1, full length (G3BP1, Homo sapiens, UniProt Q13283)
UniProt Q13283, sequence (whole entry, looked up): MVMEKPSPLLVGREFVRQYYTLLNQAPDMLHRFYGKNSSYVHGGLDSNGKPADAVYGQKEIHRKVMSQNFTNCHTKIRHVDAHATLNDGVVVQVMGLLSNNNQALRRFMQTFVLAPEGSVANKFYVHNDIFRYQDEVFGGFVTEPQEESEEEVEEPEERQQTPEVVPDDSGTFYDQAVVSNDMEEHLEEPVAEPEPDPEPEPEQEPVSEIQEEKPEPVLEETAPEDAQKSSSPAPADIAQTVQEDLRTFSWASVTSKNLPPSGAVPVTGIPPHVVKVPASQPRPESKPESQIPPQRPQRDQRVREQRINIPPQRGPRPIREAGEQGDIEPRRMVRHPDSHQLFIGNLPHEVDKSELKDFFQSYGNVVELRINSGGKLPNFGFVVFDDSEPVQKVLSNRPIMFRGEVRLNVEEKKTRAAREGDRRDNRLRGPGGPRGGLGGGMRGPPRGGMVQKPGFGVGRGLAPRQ
Method: RNA Bind-n-Seq
Form: RNA
Sample: in vitro
Tested at: 200 nM
Setting: whole 134-nt RNA, ends assumed
Added: 150 mM LiCl
Relative to: input library
Direction: higher = stronger binding
All molecules: 7-deaza-guanosine replaces G
Strand | log2 enrichment
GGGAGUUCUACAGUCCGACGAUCCACAGACAACACGCACCCACACAGACACAGAGGGAAGGGGUUGGGAUGCGGACAGGGUGCACAGCAGGGCGGGGUAGGACCCCAGCCCCUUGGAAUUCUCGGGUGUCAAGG | -1.49
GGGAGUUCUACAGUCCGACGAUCGGGUGGACACUGACGAGCUGGACAGCAACGUGGACGACUGGGAAGAGGAGACCAUUGAGUUCUUCGUCACUGAAGAAAUCAUUCCCCUCGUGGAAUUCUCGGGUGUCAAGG | -2.36
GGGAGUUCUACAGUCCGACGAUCCUCAAGUCCUGUGCUACACAUCGUAUGUACCGAAUCGGUGGUUUGGAAAAAGGAAAGUAUUAUGUUACGCCGUUCGGAUCUGCACUUCCAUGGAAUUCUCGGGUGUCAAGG | 0.016
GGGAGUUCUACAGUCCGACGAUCAGUCCUGUGCUACACAUCGUAUGUACCGAAUCAAACCCAAAUUUUUUUAAACCCAAAAAAGUAUUAUGUUACGCCGUUCGGAUCUGCACUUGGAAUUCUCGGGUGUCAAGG | 1.45
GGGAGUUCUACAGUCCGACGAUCCCUGUGCUACACAUCGUAUGUACCGAAUCGGCCCCCCCGGCCCCCCCGGGGCCCCCCCGGGAAAGUAUUAUGUUACGCCGUUCGGAUCUGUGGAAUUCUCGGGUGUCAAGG | 0.263
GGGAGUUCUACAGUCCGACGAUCCACUGACAACACGCACCCACACAGACACAGAGGGAAGGGGUUGGGAUGGGGACAGGGUGCACAGCAGGGCGGGGUAGGACCCCAGCCCCUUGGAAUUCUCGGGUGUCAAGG | -0.824
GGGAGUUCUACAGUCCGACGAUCACCAUGCAGGUGGGCAUCUUUGGGAAGUGGGGCAAGGGGGGGAUAGGGAGGGGGGUAACACUUUGGGAACAAGUGGUCCCAGGUCGUUUCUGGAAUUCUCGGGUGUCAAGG | 0.241
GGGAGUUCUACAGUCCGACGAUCGUCCUGUGCUACACAUCGUAUGUACCGAAUCGGGGUUUGGGGAGGGGUUUUUUUGGGGAAAGUAUUAUGUUACGCCGUUCGGAUCUGCACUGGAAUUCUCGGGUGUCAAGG | 0.0362
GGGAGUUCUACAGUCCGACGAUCGUCCUGUGCUACACAUCGUAUGUACCGAAUCGGGGAAAGGGGUUUGGGGUUUUUGGGGAAAGUAUUAUGUUACGCCGUUCGGAUCUGCACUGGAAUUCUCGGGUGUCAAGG | -0.725
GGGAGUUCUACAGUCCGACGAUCUACCCUCGUGCCCCUGUUUUUCCUGGCCGUGGUAGUUACUCAAACAGAGGGAACUACAACAGAGGUGGAAUGCCCAACAGAGGGAACUACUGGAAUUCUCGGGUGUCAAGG | -1.01
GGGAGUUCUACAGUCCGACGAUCAGUCCUGUGCUACACAUCGUAUGUACCGAAUCGGUUUUUGGAAAAAGGUUUUUUUGGAAAGUAUUAUGUUACGCCGUUCGGAUCUGCACUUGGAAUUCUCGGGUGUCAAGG | -2.71

Study 3
Target: Prothrombin, mature alpha-thrombin (F2, Homo sapiens, UniProt P00734)
Method: aptamer microarray, sandwich
Form: DNA with 2'F-ANA
Sample: in vitro
Tested at: 200 nM
Setting: whole 15-mer aptamer, many near background
Added: Cy3 exosite-II aptamer, 400 nM
Direction: higher = stronger binding
Strand: GGTTGGTGTGGTTGG
Modification | mean fluorescence intensity [a.u.]
2'F-ANA at 2 3 4 5 6 8 9 10 13 14 15 | 131
2'F-ANA at 1 3 5 6 7 8 9 10 15 | 47.4
2'F-ANA at 2 5 7 8 9 10 14 15 | 58.6
2'F-ANA at 1 2 3 5 7 8 9 10 14 | 48.5
2'F-ANA at 1 2 3 7 8 9 10 12 | 107
2'F-ANA at 6 10 12 | 213
2'F-ANA at 1 4 5 6 9 10 11 14 | 46.1
2'F-ANA at 5 6 7 8 11 13 14 | 46.6
2'F-ANA at 1 2 3 4 5 6 7 8 9 11 13 | 56.6
2'F-ANA at 1 4 6 7 8 9 10 13 15 | 53.5
2'F-ANA at 1 5 7 9 14 | 49.6
2'F-ANA at 1 3 6 7 9 11 12 13 15 | 286
2'F-ANA at 2 4 5 7 8 9 10 12 13 14 | 66.1
2'F-ANA at 5 7 8 11 13 | 66.2
2'F-ANA at 1 2 4 5 7 9 10 11 14 | 51.3
2'F-ANA at 2 3 4 5 6 7 8 9 10 12 | 59.5
2'F-ANA at 4 8 10 14 15 | 63.7
2'F-ANA at 5 6 7 10 11 13 15 | 46.5
2'F-ANA at 1 3 6 7 9 12 13 | 348
2'F-ANA at 1 3 7 10 11 13 15 | 74.9
2'F-ANA at 2 4 5 6 7 9 10 11 13 14 15 | 48.6
2'F-ANA at 1 3 5 10 11 13 | 44.1
2'F-ANA at 1 2 4 5 7 9 12 13 | 72.1

Study 4
Target: Interferon regulatory factor 5, full length, phosphomimetic (IRF5, Homo sapiens, UniProt Q13568-2, residues 1-514, S451D/S453D/S456D/S462D)
Method: protein-binding microarray
Form: double-stranded DNA, one strand shown
Sample: in vitro
Tested at: 940 nM top
Setting: 60-bp whole probe
Added: salmon DNA 0.4 mg/ml
Relative to: random background probes
Direction: higher = stronger binding
All sequences stand within: GCCTAGCAC … GTCTTGATTCGCTTGACGCTGCTG
Strand | fitted relative affinity [z-score]
TCAACTCTCTACATGTGACTGTGCTAG | 0.981
GACGAACTGAGCCTGGAGACGTGCTAG | -0.759
TTAGGACTGCTTTTCCTTTCGTGCTAG | -0.147
TTAGGTATCGGGACTGGGTCAGTGCTA | 4.34
GACGGCCTGGACTATCGGGACGTGCTA | -0.8
GACGGACTGGGTCTCGCGACGTGCTAG | -0.481
TTAGGTCTCCTTAACCTTTAGTGCTAG | 0.081
AGGTTGATGGCTCTCTGGACGTGCTAG | -0.66
TTAGGTTGCCTTCTCCTTTAGTGCTAG | 0.172
TCAGATTTCTCAAACAGACTGTGCTAG | 0.394
GACGGACTGCTTCTCCAGACGTGCTAG | -0.395
GACGGTCTCCTTCTCATGACGTGCTAG | 0.543
GACGGTTCCCTTTTGCTGACGTGCTAG | 0.65
CTTGCTTTCCTACTGAAATAGTGCTAG | 0.0151
TCATATATGTATATATGACTGTGCTAG | -0.263
TTAGGACTGTACTTTCGGTTAGTGCTA | 3.66
GACGGTATCGGGGATCGGGACGTGCTA | 2.98
TCCAATTACCTTTTCACTTTGTGCTAG | 1.45
AACGGTCTCGGACTGGGGACGTGCTAG | 0.735
TTAGGACTGGACACTGGGTTGGTGCTA | -0.118
GACGGTTTCCGTTCCGGGACGTGCTAG | 1.88
TTAGGACTGGGTATAGGTTAGTGCTAG | -0.427
TTAGGTATCGGAGTGGGTTAGTGCTAG | 3.04
TTAGGTTCCCTATTCCTTTAGTGCTAG | 0.551
TTAGGACTGCTACTACTTTAGTGCTAG | -0.331

For quick reference, copied from above (study 1):
Strand | E-score
CCTGACTC | -0.0506
CACGAAAA | 0.0318
ATAGCGCA | -0.111
GCGGTCGA | 0.149
CGGAAAAC | -0.0363
CGAATCCC | 0.116
GTAATCGA | -0.0878
ACTCTAGA | -0.147
CATATGCG | -0.0963
